{"data": "Measured values pooled from the literature", "ABL1": "Tyrosine-protein kinase ABL1 (ABL1, Homo sapiens, UniProt P00519)", "ABL1 H396P": "Tyrosine-protein kinase ABL1 (ABL1, Homo sapiens, UniProt P00519, H396P)", "note": "Protocols differ between the studies behind these lines. Several values in a cell are separate wells, animals, samples, runs or records."}
{"Structure (SMILES)": "Cc1cccc(O[C@H]2CCC[C@@H](C(C)CNCc3ccncc3)C2)c1 (relative stereo)", "target": "ABL1", "assay": "enzyme activity, inhibitor", "conditions": "1 µM", "quantity": "inhibition", "value": "-12%"}
{"Structure (SMILES)": "NC(=O)C[C@H]1CCc2sc3ncnc(O[C@H]4CC[C@H](N5CCOCC5)CC4)c3c21", "target": "ABL1", "assay": "enzyme activity, inhibitor", "conditions": "10 µM", "quantity": "inhibition", "value": "4%"}
{"Structure (SMILES)": "CN1CCN(Cc2ccc(-c3ccc(CO[C@H]4CCC[C@@H]4NC(=O)c4cc(-c5cnn(C)c5)cnc4N)cc3)cc2)CC1", "target": "ABL1", "assay": "enzyme activity, inhibitor", "conditions": "0.1 µM", "quantity": "inhibition", "value": "-1%"}
{"Structure (SMILES)": "CCN1CCN(Cc2ccc(NC(=O)c3ccc(C)c(NC(=O)c4cncc(-c5cccs5)c4)c3)cc2C(F)(F)F)CC1", "target": "ABL1 H396P", "assay": "binding, competition with immobilised ligand", "conditions": "1 µM", "quantity": "remaining binding", "value": "0.5%"}
{"Structure (SMILES)": "CCn1cc(C(=O)O)c(=O)c2c(N)c(F)c(NC3CCCCC3)cc21", "target": "ABL1", "assay": "kinase activity", "conditions": "0.1 µM, added: ATP at Km", "quantity": "inhibition", "value": "-9.7%"}
{"Structure (SMILES)": "[2H]c1cc(C)c(NC(=O)c2cnc(Nc3cc(N4CC[C@H](N)C4)nc(C)n3)s2)c(Cl)c1", "target": "ABL1", "assay": "enzyme activity, inhibitor", "conditions": "1 nM", "quantity": "inhibition", "value": "87%"}
{"Structure (SMILES)": "C=CC(=O)Nc1cccc(-c2cnc3[nH]cc(C(=O)NC(C)(C)C)c3n2)c1", "target": "ABL1", "assay": "enzyme activity, inhibitor", "conditions": "0.1 µM", "quantity": "inhibition", "value": "17%"}
{"Structure (SMILES)": "COc1ccc(NC(=O)Nc2ccc3c(c2)C(=O)N(C(C)CO)CC(C)C(CN(C)Cc2ccc4c(c2)OCO4)O3)cc1 (stereo not drawn)", "target": "ABL1 H396P", "assay": "kinase activity", "conditions": "0.03 µM", "scale": "reference: control", "quantity": "remaining activity", "value": "104%"}
{"Structure (SMILES)": "O=c1c(-c2ccc(Cl)c(CN3CCOCC3)c2)coc2cc(O)ccc12", "target": "ABL1", "assay": "enzyme activity, inhibitor", "conditions": "1 µM", "quantity": "remaining activity", "value": "114%"}
{"Structure (SMILES)": "C=CC(=O)Oc1ccc(OC)c(-c2c[nH]c3ncc(-c4cncc(C(=O)N(C)C)c4)cc23)c1", "target": "ABL1", "assay": "intact protein MS", "conditions": "100 µM, 12 h, ABL kinase domain 10 µM", "quantity": "covalent adduct formation", "value": "~16%"}
{"Structure (SMILES)": "COc1cc(OC)c(F)c(/C=C/c2cnc3ccn(S(=O)(=O)c4cn(CCF)cn4)c3n2)c1F", "target": "ABL1", "conditions": "100 nM", "quantity": "inhibition", "value": "0%"}
{"Structure (SMILES)": "COCC12C(=O)NC3C4(C(OC)CC1O)C1CC5(O)C(OC)C(O)C(OC(C)=O)(C1C5OC(=O)c1ccccc1)C3(O)C(OC)C24 (stereo not drawn)", "target": "ABL1", "assay": "kinase activity, inhibitor, ProQinase kinase profiling", "conditions": "25 µM", "scale": "reference: control", "quantity": "remaining activity", "value": "94% and 101%"}
{"Structure (SMILES)": "C=CC(=O)N1Cc2nc(-c3cc(-c4cc(Cl)cnc4Cl)c(F)cc3F)n(-c3ccncn3)c2C1", "target": "ABL1", "assay": "cell-free assay, inhibitor", "conditions": "1 µM", "quantity": "inhibition", "value": "10.1%"}
{"Structure (SMILES)": "O=C(O)CCC(=O)c1cccc(NS(=O)(=O)c2c[nH]c3ncccc23)c1", "target": "ABL1", "assay": "kinase activity, radiometric", "conditions": "10 µM", "quantity": "remaining activity", "value": "96%"}
{"Structure (SMILES)": "O=C=[N][Ru-4]123([n]4c5ccc(O)cc5c5c6c(c7cc(F)c[n+]1c7c54)C(=O)NC6=O)[S+]1CC[S+]2CC[S+]3CC1 (stereo not drawn)", "target": "ABL1 (Homo sapiens, UniProt P00519, M351T)", "assay": "enzyme activity", "conditions": "100 nM, human enzyme, added: 10 µM ATP", "scale": "reference: untreated", "quantity": "remaining activity", "value": "106%"}
{"Structure (SMILES)": "COc1ccc(O)cc1-c1c[nH]c2ncc(-c3cncc(C(=O)N(C)C)c3)cc12", "target": "ABL1", "assay": "binding, competition with immobilised ligand", "conditions": "0.2 µM", "quantity": "inhibition", "value": "99.5%"}
{"Structure (SMILES)": "CN1CCN(Cc2ccc(NC(=O)c3cccc(C#Cc4cnc(N)c5ncccc45)c3)cc2C(F)(F)F)CC1", "target": "Tyrosine-protein kinase ABL1, phosphorylated (ABL1, Homo sapiens, UniProt P00519)", "assay": "cell-free assay, competition with immobilised ligand", "conditions": "0.5 µM", "quantity": "remaining binding", "value": "0.3%"}
{"Structure (SMILES)": "COc1c(Cl)cccc1Nc1c(-c2ccncc2C#C[C@@]2(C)CCCN2C(=O)/C=C/CN(C)C)[nH]c2c1C(=O)NCC2", "target": "Tyrosine-protein kinase ABL1, non-phosphorylated (ABL1, Homo sapiens, UniProt P00519)", "assay": "binding, competition with immobilised ligand", "conditions": "3 µM", "quantity": "remaining binding", "value": "24%"}
{"note": "Excerpt of the above:"}
{"Structure (SMILES)": "COc1ccc(O)cc1-c1c[nH]c2ncc(-c3cncc(C(=O)N(C)C)c3)cc12", "target": "ABL1", "assay": "binding, competition with immobilised ligand", "conditions": "0.2 µM", "quantity": "inhibition", "value": "99.5%"}
{"Structure (SMILES)": "CN1CCN(Cc2ccc(NC(=O)c3cccc(C#Cc4cnc(N)c5ncccc45)c3)cc2C(F)(F)F)CC1", "target": "Tyrosine-protein kinase ABL1, phosphorylated (ABL1, Homo sapiens, UniProt P00519)", "assay": "cell-free assay, competition with immobilised ligand", "conditions": "0.5 µM", "quantity": "remaining binding", "value": "0.3%"}
{"Structure (SMILES)": "COc1c(Cl)cccc1Nc1c(-c2ccncc2C#C[C@@]2(C)CCCN2C(=O)/C=C/CN(C)C)[nH]c2c1C(=O)NCC2", "target": "Tyrosine-protein kinase ABL1, non-phosphorylated (ABL1, Homo sapiens, UniProt P00519)", "assay": "binding, competition with immobilised ligand", "conditions": "3 µM", "quantity": "remaining binding", "value": "24%"}
